Assay results gathered from unrelated publications.
Numbers after ± are the reported error.
Mapk1: Mitogen-activated protein kinase 1 (Mapk1, Rattus norvegicus, UniProt P63086)
UniProt P63086, sequence (whole entry, looked up): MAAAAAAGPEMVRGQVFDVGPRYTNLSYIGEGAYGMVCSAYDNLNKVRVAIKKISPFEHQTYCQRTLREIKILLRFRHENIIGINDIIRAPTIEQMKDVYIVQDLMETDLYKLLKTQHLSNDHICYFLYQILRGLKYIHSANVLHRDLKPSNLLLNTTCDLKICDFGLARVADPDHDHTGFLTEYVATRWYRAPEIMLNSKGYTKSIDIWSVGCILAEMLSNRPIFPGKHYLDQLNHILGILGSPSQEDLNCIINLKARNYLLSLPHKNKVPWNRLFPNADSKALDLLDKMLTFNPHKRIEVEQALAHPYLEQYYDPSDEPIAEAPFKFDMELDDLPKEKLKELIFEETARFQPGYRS
CA1: Carbonic anhydrase 1 (CA1, Homo sapiens, UniProt P00915)
UniProt P00915, sequence (whole entry, looked up): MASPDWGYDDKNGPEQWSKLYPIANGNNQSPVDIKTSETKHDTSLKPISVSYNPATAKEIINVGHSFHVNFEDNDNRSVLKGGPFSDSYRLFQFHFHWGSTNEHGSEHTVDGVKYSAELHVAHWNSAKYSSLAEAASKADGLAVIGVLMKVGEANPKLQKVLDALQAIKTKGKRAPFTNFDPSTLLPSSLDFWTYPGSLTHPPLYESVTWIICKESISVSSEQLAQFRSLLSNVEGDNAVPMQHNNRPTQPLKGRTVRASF
UniProt Q14524, sequence (whole entry, looked up): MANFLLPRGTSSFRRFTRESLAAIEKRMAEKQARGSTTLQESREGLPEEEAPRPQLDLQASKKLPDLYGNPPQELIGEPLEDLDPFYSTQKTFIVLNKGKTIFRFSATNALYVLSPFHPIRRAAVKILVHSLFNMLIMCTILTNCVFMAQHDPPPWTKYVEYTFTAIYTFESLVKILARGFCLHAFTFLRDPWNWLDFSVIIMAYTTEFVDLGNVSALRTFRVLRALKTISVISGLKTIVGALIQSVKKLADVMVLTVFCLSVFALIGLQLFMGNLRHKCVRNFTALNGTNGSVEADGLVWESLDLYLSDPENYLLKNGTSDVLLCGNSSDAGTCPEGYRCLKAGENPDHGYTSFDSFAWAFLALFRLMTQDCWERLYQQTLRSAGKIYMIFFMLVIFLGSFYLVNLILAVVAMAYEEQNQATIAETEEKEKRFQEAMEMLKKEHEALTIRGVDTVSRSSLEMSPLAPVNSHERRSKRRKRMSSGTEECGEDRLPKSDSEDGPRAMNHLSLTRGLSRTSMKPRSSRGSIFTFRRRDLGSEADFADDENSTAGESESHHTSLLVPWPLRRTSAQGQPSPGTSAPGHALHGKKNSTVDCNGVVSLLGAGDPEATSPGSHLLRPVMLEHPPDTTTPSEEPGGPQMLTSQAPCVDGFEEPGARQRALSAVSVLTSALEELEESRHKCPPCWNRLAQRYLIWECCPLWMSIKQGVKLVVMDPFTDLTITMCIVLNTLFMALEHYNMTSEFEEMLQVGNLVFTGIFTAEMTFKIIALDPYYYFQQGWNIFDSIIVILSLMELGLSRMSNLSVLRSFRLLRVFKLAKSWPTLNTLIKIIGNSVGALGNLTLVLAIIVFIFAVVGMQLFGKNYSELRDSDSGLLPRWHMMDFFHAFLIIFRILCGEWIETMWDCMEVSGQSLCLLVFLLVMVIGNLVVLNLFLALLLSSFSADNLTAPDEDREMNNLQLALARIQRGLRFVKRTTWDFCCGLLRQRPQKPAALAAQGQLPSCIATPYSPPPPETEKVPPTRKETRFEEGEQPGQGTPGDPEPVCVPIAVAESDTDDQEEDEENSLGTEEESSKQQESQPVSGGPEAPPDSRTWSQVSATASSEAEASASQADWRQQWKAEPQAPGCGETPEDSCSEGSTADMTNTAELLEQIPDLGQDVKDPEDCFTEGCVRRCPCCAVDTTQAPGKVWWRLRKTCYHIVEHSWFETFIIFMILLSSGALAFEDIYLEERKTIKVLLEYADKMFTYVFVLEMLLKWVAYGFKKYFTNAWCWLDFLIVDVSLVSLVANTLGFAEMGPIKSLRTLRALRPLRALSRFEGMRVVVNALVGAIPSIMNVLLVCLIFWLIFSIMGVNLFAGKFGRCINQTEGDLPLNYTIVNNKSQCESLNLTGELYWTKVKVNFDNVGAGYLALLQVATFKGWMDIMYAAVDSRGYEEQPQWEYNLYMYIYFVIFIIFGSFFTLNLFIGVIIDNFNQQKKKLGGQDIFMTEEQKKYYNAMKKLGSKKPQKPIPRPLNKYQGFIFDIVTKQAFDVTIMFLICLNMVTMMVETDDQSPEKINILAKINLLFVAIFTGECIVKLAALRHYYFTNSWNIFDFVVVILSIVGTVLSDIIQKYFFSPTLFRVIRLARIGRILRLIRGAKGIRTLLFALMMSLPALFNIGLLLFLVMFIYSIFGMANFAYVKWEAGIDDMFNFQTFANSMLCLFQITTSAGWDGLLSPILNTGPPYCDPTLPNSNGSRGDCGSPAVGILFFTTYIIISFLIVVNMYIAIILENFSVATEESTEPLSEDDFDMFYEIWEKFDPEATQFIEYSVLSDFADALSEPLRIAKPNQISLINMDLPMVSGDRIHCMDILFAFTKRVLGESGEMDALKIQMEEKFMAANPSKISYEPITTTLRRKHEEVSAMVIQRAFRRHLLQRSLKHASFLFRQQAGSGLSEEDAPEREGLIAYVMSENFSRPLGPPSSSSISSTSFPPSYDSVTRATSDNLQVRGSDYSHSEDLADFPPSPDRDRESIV
UniProt P40306, sequence (whole entry, looked up): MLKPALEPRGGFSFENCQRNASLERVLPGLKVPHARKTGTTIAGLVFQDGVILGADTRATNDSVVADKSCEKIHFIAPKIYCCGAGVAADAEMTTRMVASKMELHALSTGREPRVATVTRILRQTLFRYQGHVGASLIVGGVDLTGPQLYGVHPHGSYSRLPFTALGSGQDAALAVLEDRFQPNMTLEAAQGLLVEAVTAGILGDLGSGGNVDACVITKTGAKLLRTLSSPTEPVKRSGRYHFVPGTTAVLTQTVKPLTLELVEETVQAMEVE
UniProt Q9UKE5, sequence (whole entry, looked up): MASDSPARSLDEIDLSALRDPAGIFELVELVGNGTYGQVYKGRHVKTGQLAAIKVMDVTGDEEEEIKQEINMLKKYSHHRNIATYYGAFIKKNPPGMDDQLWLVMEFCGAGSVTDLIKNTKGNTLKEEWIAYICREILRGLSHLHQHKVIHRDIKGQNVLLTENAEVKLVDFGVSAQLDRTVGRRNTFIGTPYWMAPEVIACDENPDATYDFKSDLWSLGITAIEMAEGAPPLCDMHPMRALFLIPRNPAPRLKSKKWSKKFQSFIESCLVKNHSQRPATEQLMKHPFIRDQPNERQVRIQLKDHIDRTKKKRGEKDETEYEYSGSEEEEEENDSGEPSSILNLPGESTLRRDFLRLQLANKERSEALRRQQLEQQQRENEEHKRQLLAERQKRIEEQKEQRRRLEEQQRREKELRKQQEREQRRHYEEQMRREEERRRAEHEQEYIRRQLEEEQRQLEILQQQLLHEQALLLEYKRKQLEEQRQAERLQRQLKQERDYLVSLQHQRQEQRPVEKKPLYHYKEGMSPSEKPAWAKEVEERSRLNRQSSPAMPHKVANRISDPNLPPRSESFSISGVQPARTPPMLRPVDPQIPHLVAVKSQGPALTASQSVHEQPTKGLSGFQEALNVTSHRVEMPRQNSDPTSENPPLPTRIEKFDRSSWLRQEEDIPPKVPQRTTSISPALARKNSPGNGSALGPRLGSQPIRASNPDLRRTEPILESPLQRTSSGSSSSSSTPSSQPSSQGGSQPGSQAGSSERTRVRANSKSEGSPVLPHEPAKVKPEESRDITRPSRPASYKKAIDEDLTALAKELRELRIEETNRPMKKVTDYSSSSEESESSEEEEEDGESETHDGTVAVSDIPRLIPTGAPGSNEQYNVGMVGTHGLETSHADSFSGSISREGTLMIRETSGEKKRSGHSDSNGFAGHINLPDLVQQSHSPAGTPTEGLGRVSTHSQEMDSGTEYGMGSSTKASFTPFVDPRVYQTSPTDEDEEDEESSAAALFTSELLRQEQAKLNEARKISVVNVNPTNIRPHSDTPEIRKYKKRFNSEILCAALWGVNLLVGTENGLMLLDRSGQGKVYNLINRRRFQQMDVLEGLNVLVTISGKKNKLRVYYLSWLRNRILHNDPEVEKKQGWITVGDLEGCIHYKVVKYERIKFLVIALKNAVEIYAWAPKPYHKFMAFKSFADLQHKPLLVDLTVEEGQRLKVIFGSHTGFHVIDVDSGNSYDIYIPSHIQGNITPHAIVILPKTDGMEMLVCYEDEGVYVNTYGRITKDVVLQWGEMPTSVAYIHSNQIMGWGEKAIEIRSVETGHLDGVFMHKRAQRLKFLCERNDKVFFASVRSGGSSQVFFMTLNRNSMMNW
UniProt Q8WWR8, sequence (whole entry, looked up): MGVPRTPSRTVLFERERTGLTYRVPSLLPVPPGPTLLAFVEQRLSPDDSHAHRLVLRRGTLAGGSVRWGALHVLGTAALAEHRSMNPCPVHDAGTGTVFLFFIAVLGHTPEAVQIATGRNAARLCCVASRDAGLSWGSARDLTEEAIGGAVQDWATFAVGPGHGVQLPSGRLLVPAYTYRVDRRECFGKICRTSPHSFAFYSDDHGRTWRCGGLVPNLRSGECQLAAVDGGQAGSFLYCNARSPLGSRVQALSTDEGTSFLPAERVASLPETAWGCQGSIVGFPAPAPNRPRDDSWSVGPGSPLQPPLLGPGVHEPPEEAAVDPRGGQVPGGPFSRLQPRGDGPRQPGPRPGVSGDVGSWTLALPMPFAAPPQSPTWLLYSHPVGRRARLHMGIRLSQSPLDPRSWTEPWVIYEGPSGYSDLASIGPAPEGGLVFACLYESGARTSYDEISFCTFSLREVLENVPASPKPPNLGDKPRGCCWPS
UniProt P28065, sequence (whole entry, looked up): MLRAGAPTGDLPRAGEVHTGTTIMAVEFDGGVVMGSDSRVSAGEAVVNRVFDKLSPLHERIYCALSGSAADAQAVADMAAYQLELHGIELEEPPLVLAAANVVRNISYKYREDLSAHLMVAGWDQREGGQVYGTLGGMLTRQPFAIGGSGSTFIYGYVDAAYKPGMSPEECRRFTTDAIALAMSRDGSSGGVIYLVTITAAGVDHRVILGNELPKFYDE

SMILES = CC[C@H](C)[C@H](NC(=O)[C@H](CC(C)C)NC(=O)[C@H](C)NC(=O)[C@@H]1CCCN1C(=O)[C@H](C)NC(=O)[C@H](CCCNC(=N)N)NC(=O)[C@@H]1CCCN1C(=O)[C@H](CCCNC(=N)N)NC(=O)[C@H](CCC(N)=O)NC(=O)[C@H](CCCCN)NC(=O)[C@@H]1CCCN1C(=O)[C@H](C)NC(=O)[C@@H](N)Cc1ccc(O)cc1)C(=O)N[C@H](C(=O)N1CCC[C@H]1C(=O)N[C@H](C(=O)O)[C@@H](C)O)[C@@H](C)CC; target = Mapk1; assay = enzyme activity, inhibitor, fluorescence; setting = pH 7.4; IC50 = > 200000 nM
SMILES = NCCOCCOCCNC(=O)Cc1ccc(Nc2nc(NCc3ccc(F)cc3)nc(NCC3CCCCC3)n2)cc1; target = Fructose-bisphosphate aldolase (Candida albicans, UniProt Q9URB4); assay = enzyme activity, inhibitor, absorbance; IC50 = 516 nM
SMILES = O=C(Oc1ccc([N+](=O)[O-])cc1)N1CCN(Cc2cccc(Oc3ccccc3)c2)CC1; target = ABHD6 (Homo sapiens, UniProt Q9BV23); assay = enzyme activity, inhibitor; setting = added: FP-biotin 1 µM; IC50 = 55 nM
SMILES = CCc1ccc(S(=O)(=O)Nc2ccc(C3CC3)c(F)c2)cc1S(=O)(=O)F; target = GTPase KRas, with RAF (KRAS, Homo sapiens, UniProt P01116); assay = RAF-KRAS interaction, inhibitor, NanoBRET; system = HEK293T; setting = 24 h; IC50 = 40000 ± 10000 nM
SMILES = CC[C@H](C)[C@H](NC(=O)[C@H](CCCCN)NC(=O)[C@H](CC(C)C)NC(=O)[C@H](CCCCN)NC(=O)[C@H](CCCNC(=N)N)NC(=O)[C@H](CCCCN)NC(=O)[C@H](CCCCN)NC(=O)[C@@H](NC(=O)[C@H](CCCCN)NC(=O)[C@H](CC(N)=O)NC(=O)[C@H](CCCCN)NC(=O)[C@@H](NC(=O)[C@H](C)NC(=O)[C@@H](N)Cc1ccc(O)cc1)[C@@H](C)O)C(C)C)C(=O)N[C@H](C(=O)N[C@@H](CCCNC(=N)N)C(=O)O)[C@@H](C)CC; target = Mapk1; assay = enzyme activity, inhibitor, fluorescence; setting = pH 7.4; IC50 = 15700 nM
SMILES = CNC(=O)c1cc(Sc2ccc(OC)cc2)nc2ccccc12; target = Calmodulin-domain protein kinase 1, phosphorylated (CDPK1, Toxoplasma gondii, UniProt Q9BJF5); assay = enzyme activity, inhibitor, ELISA; IC50 = 1200 nM
SMILES = CCCCCCCCCCCCCCCCCC(=O)NC[C@H]1CC[C@H](C(=O)N[C@@H](CCC(=O)NCCCOCCOCCOCCCNC(=O)COCC(=O)N[C@@H](Cc2ccc(O)cc2)C(=O)NC(C)(Cc2ccccc2)C(=O)N[C@@H](CC(C)C)C(=O)N[C@@H](CCCC)C(=O)N[C@@H](CCCNC(=N)N)C(=O)N2CCC[C@H]2C(=O)N[C@@H](CCCNC(=N)NC)C(=O)N[C@@H](CC(N)=O)C(N)=O)C(=O)O)CC1 (stereo partly drawn); target = NMUR2 (Homo sapiens, UniProt Q9GZQ4); assay = ligand displacement, radioligand; setting = cell membranes; IC50 = 0.91 nM
SMILES = N[C@H](C(=O)N1CCCC1)C1CCN(c2nccc3c(-c4ncc(Cl)cc4Cl)cccc23)CC1; target = PADI1 (Homo sapiens, UniProt Q9ULC6); assay = enzyme activity, inhibitor; IC50 = 110 nM
SMILES = COc1ccccc1-n1ccnc1SCC(=O)Nc1cc(C(F)(F)F)ccc1Cl; target = PFF0160c (Plasmodium falciparum, UniProt Q08210, E182D); assay = enzyme activity, inhibitor, absorbance; IC50 = 92.1 nM
SMILES = O=C(O)CCn1c(=O)oc2cc(Cl)c(Cl)cc21; target = CHRNA1/Acetylcholine receptor subunit delta (Homo sapiens, UniProt P02708+Q07001); assay = ion current, blocker; IC50 = > 50100 nM
SMILES = O=C(CF)N[C@H]1[C@H]([C@H](O)[C@H](O)CNC(=O)c2ccc(-c3ccccc3)cc2)O[C@@](OCc2cccc(Cl)c2Cl)(C(=O)O)C[C@@H]1O; target = CD22 (Homo sapiens, UniProt P20273); assay = ligand binding, inhibitor, competitive bead binding flow cytometry; setting = added: 6'SLN(Gc)-PAA-biotin beads; IC50 = 300 ± 40 nM
SMILES = O=C(Nc1ccc(-c2ccccc2)cc1)N[C@H]1[C@H]([C@H](O)[C@H](O)CO)OC(C(=O)O)=C[C@@H]1O; target = Sialidase-4 (Homo sapiens, UniProt Q8WWR8); assay = enzyme activity, inhibitor; IC50 = > 500000 nM
SMILES = CC(C)C[C@H](NC(=O)[C@H](CC(=O)O)NC(=O)[C@@H](N)CC(C)C)C(=O)N1CCC[C@H]1C(=O)N[C@@H](Cc1ccccc1)C(=O)N[C@H](CCC(=O)O)C(=O)N[C@@H](Cc1ccccc1)C(N)=O; target = Transcriptional regulator PlcR (Bacillus thuringiensis, UniProt A0ACM8Q0N2); assay = reporter gene, inhibitor, lacZ reporter; system = 407 Cry−; setting = 1 h, phase, late exponential, added at; IC50 = 752 ± 111 nM
SMILES = CC(C)N1CCCCC1C(=O)NC(Cc1ccc(-c2ccccc2)cc1)B(O)O (stereo not drawn); target = Proteasome subunit beta type-9 / Proteasome subunit beta type-10 (Homo sapiens, UniProt P28065+P40306); assay = β1i activity, inhibitor; setting = immunoproteasome, added: Ac-PAL-AMC; IC50 = > 10000 nM
SMILES = CC(=O)C1CCC2(C)C(CCC3C4CCC(O)C4(C)CCC32)C1 (stereo not drawn); target = Androgen receptor (AR, Homo sapiens, UniProt P10275); assay = nuclear translocation, antagonist; IC50 = 600 nM
SMILES = C=C1NC(=O)[C@H](C)NC(=O)[C@H](Cc2ccccc2)NC(=O)[C@H](CCCNC(=N)N)NC(=O)[C@H](CCSC)NC(=O)CNC(=O)[C@H]([C@@H](C)CC)NC(=O)[C@H](CCC(N)=O)NC(=O)[C@H]([C@@H](C)CC)NC(=O)[C@H](CC(=O)O)NC(=O)[C@H](Cc2c[nH]c3ccccc23)NC(=O)[C@H](Cc2c[nH]c3ccccc23)NC(=O)c2ccc(-c3nc(C(=O)OC)cs3)nc2-c2csc1n2; target = TNIK (Homo sapiens, UniProt Q9UKE5); assay = enzyme activity, inhibitor, ADP detection; IC50 = 9100 nM
SMILES = COc1ccccc1-n1c(SCC(=O)Nc2ccccc2F)nc2cccnc21; target = PFF0160c (Plasmodium falciparum, UniProt Q08210); assay = enzyme activity, inhibitor, absorbance; IC50 = 2780 nM
SMILES = Cc1nnc(C(C)C)n1C1CC2CCC(C1)N2CCC(NC(=O)Cc1ccc(-c2nncnn2)cc1)c1ccccc1 (stereo not drawn); target = CCR5 (Homo sapiens, UniProt P51681); assay = calcium mobilization, antagonist; system = HEK-293T; setting = 2 h preincubation, top constrained to 1, added: 0.1 µM PSC-RANTES; IC50 = 8.91 nM
SMILES = CCN(C)C(=O)Oc1ccccc1/C=C1\Cc2cc(OC)c(OC)cc2C1=O; target = ACHE (Homo sapiens, UniProt P22303); assay = enzyme activity, inhibitor; IC50 = > 10000 nM
SMILES = COc1cc(CN2CCN(C(=O)Cc3ccccc3)CC2)cc(OC)c1O; target = Alpha-synuclein (SNCA, Homo sapiens, UniProt P37840); assay = seeded fibril growth, FlAsH fluorescence; setting = 3 h, 37 °C, added: 3 µM C2-asyn monomer, 1 µM seeds; IC50 = 4000 ± 1000 nM
SMILES = Clc1ccc2c(C3=CCN(CCCOc4ccccc4)CC3)c[nH]c2c1; target = SLC6A4 (Homo sapiens, UniProt P31645); assay = ligand displacement, radioligand; setting = cell membranes; IC50 = 3170 nM
SMILES = CC[C@H](C)[C@H](NC(=O)[C@H](C)NC(=O)[C@H](CCC(=O)O)NC(=O)[C@H](CC(C)C)NC(=O)[C@H](CO)NC(=O)[C@H](CCCNC(=N)N)NC(=O)[C@H](CCCNC(=N)N)NC(=O)[C@H](CC(C)C)NC(=O)[C@H](CC(C)C)NC(=O)[C@@H](NC(=O)[C@H](C)NC(=O)[C@@H](N)Cc1ccc(O)cc1)[C@@H](C)CC)C(=O)N[C@@H](CCC(=O)O)C(=O)N[C@@H](CC(C)C)C(=O)NCC(=O)N[C@@H](CC(C)C)C(=O)O; target = Mapk1; assay = enzyme activity, inhibitor, fluorescence; setting = pH 7.4; IC50 = 75700 nM
SMILES = O=S(=O)(N/N=C/c1ccc(OS(=O)(=O)c2ccc(Br)cc2)cc1)c1ccc(Cl)cc1; target = CA1; assay = enzyme activity, inhibitor, absorbance; IC50 = 63.6 nM
SMILES = CCN(N=Cc1cnc2ccc(Br)cn12)S(=O)(=O)c1cc([N+](=O)[O-])ccc1C; target = PIK3CB (Homo sapiens, UniProt P42338, Y778I); assay = enzyme activity, inhibitor; IC50 = 2000 nM
SMILES = CC(C)C[C@H](NC(=O)[C@H](CCCNC(=N)N)NC(=O)[C@H](CC(C)C)NC(=O)[C@H](Cc1ccc(O)cc1)NC(=O)[C@H](CCCCN)NC(=O)[C@H](Cc1c[nH]cn1)NC(=O)[C@H](C)NC(=O)[C@H](CCCCN)NC(=O)[C@H](CCCNC(=N)N)NC(=O)[C@@H]1CCCN1C(=O)[C@H](CCCCN)NC(=O)[C@H](CCCNC(=N)N)NC(=O)[C@H](C)NC(=O)[C@@H](N)Cc1ccc(O)cc1)C(=O)N[C@@H](CO)C(=O)N[C@@H](CCCNC(=N)N)C(=O)O; target = Mapk1; assay = enzyme activity, inhibitor, fluorescence; setting = pH 7.4; IC50 = 35500 nM
SMILES = Cc1[nH]c(C)c(S(=O)(=O)NC2CCCCC2)c1C(=O)N1CCCC1; target = DRD3 (Homo sapiens, UniProt P35462); assay = β-arrestin recruitment, antagonist, PathHunter; setting = added: dopamine EC80; IC50 = > 100000 nM
SMILES = O=S(=O)(N/N=C/c1ccc(OS(=O)(=O)c2ccccc2)cc1)c1cc(Cl)ccc1Cl; target = CA1; assay = enzyme activity, inhibitor, absorbance; IC50 = 30.5 nM
SMILES = CC[C@H](C)[C@H](NC(=O)[C@H](CC(C)C)NC(=O)[C@@H]1CCCN1C(=O)[C@H](CCCNC(=N)N)NC(=O)[C@@H]1CCCN1C(=O)[C@H](CCCCN)NC(=O)[C@H](Cc1c[nH]cn1)NC(=O)[C@H](CCCNC(=N)N)NC(=O)[C@H](Cc1ccccc1)NC(=O)[C@H](CCCCN)NC(=O)[C@H](CCCCN)NC(=O)[C@H](C)NC(=O)[C@@H](N)Cc1ccc(O)cc1)C(=O)N[C@@H](CC(C)C)C(=O)N1CCC[C@H]1C(=O)N1CCC[C@H]1C(=O)O; target = Mapk1; assay = enzyme activity, inhibitor, fluorescence; setting = pH 7.4; IC50 = 2080 nM
SMILES = C[C@@H]1COCCN1c1nc(NCc2cccnc2C(F)(F)F)c2cccnc2n1; target = SCN5A (Homo sapiens, UniProt Q14524); assay = ion current, inhibitor; IC50 = > 33000 nM
SMILES = CC(C)C[C@H](NC(=O)[C@H](CCC(N)=O)NC(=O)[C@H](CC(N)=O)NC(=O)[C@H](C)NC(=O)[C@@H](N)Cc1ccc(O)cc1)C(=O)N[C@@H](CCCCN)C(=O)N[C@@H](Cc1ccccc1)C(=O)N[C@@H](CCCNC(=N)N)C(=O)N[C@@H](CCCCN)C(=O)N[C@@H](CCCCN)C(=O)N[C@@H](CCCCN)C(=O)N[C@@H](CC(C)C)C(=O)N[C@@H](CCCCN)C(=O)N[C@@H](Cc1ccccc1)C(=O)N[C@@H](CS)C(=O)N[C@@H](CCCCN)C(=O)O; target = Mapk1; assay = enzyme activity, inhibitor, fluorescence; setting = pH 7.4; IC50 = 24700 nM
SMILES = CC12CCC3C(CCC4CC(O)CCC43C)C1CCC2C#N (stereo not drawn); target = CNR1 (Homo sapiens, UniProt P21554); assay = cAMP, antagonist; IC50 = 4890 nM
SMILES = CC[C@H](C)[C@H](NC(=O)[C@@H](NC(=O)[C@H](CCC(=O)O)NC(=O)[C@H](CCSC)NC(=O)[C@H](CCC(N)=O)NC(=O)[C@H](CCCNC(=N)N)NC(=O)[C@H](CCCNC(=N)N)NC(=O)[C@H](CC(N)=O)NC(=O)[C@H](CCCNC(=N)N)NC(=O)[C@H](CC(C)C)NC(=O)[C@H](C)NC(=O)[C@@H](N)Cc1ccc(O)cc1)C(C)C)C(=O)N[C@@H](CO)C(=O)N[C@@H](CC(C)C)C(=O)N[C@@H](CCCNC(=N)N)C(=O)N[C@@H](CC(C)C)C(=O)O; target = Mapk1; assay = enzyme activity, inhibitor, fluorescence; setting = pH 7.4; IC50 = 41400 nM
SMILES = C[C@]12C(c3cccnc3)=C[C@H]3[C@@H](CCC4=C[C@H](O)CC[C@@]43C)[C@@H]1CC[C@@H]2O; target = 7-alpha-hydroxycholest-4-en-3-one 12-alpha-hydroxylase (Homo sapiens, UniProt Q9UNU6, W281F); assay = enzyme activity; setting = W281F mutant, added: 7α-hydroxycholest-4-en-3-one; IC50 = 10200 nM
